Assay results from different studies.
Each numbered part is a random draw from the data of one study; scales do not carry over between parts.

Set 1
Target: RNA binding protein fox-1 homolog 2, RRM domain, GST-SBP tag (RBFOX2, Homo sapiens, UniProt O43251-10, residues 100-194)
Method: RNA Bind-n-Seq
Molecule type: RNA
Medium: in vitro
Tested at: 365 nM
Setting: natural RNA segment, single round, ends assumed
Reference: no-protein control
Reading: higher = stronger binding
Endpoint: RBNS enrichment (R)
Shared flanks, not repeated: GGGAGUUCUACAGUCCGACGAUC … UGGAAUUCUCGGGUGCCAA
Construct (chain): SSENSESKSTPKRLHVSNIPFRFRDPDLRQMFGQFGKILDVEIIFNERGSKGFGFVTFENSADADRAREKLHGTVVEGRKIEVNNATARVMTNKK
UCCGAGGCCACCCUUCACGGCGAGCCUCGUGCUGGGCUCUUACCUGUGCUUUCUUGCUCUGGACUGCGAGUGCACCCAGGGUUCUUCUAUCCCGACACAGCUCUGUGCCU: 0.237
UCCUUAAUUGUAGCCUUUGAAGGAUCCCCUGUUAGACCGCCAGUCAGUGCCACGAGUUGAAAGCUUCCAUACUGAACACUAUCCUUUCACUAUAUAAGUAAAGCAAAUAU: 0.501
UUGGGUUAUUUUUUUACACAGCUGGUAAAGAGGAUUAUUCUGAAGAGUCAAAUGGACAGUAGAAGCAUGUGAUAGCCAGAAGGGCUGAGGCUGAUCUGGGUCCCCCAAAG: 7.12
GAAGCAUGGGAUGAAAUAGAGGGAAGAAGAGUUUUUAUUUUCUGGCCUUUAAAAAGUGCCUAGUAGGUCAUUUGAGACCCAGAGAAAUGCACAGAGCUUGAGCAAAGGCA: 3.3
UUAAUAAAUACUUAUUAAAAUGCUUAUUCUAAAGUACUAUGAUUUUAGUAAUGCUAUCAGUCCUCCAAGUGUUAGGGACAAUCUUAGAAUUCUCAUGUAAUGAGAAGCAA: 0.872
CUCCAGCCAUCAAGAGACUGAGUCAAGUUGUUCCUUAAGUCAGAACAGCAGACUCAGCUCUGACAUUCUGAUUCGAAUGACACUGUUCAGGAAUCGGAAUCCUGUCGAUU: 0.297
UCUGCCAGAGAGUGUCAGCUCUGUCAUCCACCAUAUUUCGACAGCCGCUCCUUGCUGCUACACGGGGUAGGAGGACAUACAAAUAAUUGCUUCUCGUUCUUAGCAGGGAU: 0.3
CCUGUGUGGCCAGCAGAGGAAGCCUUGAGGAUAGAUCUCGGGUGACGUGGGAUUUUCUAAGCCUGAGAGGUGUCCUUCUGCACACCCUUGUAACAAUUAAAAUUGCUUUU: 0.542
AAAUCUUUCAAAAAAAAAAUCGGGACAAGUGAACACAUUAACAUGAUUCUGUUUGUGCAGAUUAAAAACUUUAUAGGGACUUGCAUUAUCGGUUCUCAAUAAAUUACUGA: 0.767
AGCCCAGACCACCACAGCUGGCCACGACAUUGCCCUUAAGUAAUAUGCAUUGGCCAGAGAGCCCGGGCUGGCUGUGCACAGCAUUCAUGUAGCUGAUUUCUAGCUUUUUU: 1.84
UUAUGAUCCACCCCUCUCGGCCUCCCAAAGUGCUGGGAUUACAGGCGUGAGCCACCGCACCCGGCCUCAAAUGGAAAUAUUUCACAGAGGAGUGGUUCAGUUUAGCCCUG: 0.21
UGGUUUUCCAGCCUCGACCCACUGCGCUCACCUGGCACUGCCCCACUUUCUUCACCCUGGGUCUGUUUCAAGCCGGCCAGAGAGCCUUUCCAAAGAGGAAUGAGGCCCAG: 0.308

Set 2
Target: TAR DNA-binding protein 43, full length, His tag (TARDBP, Homo sapiens, UniProt Q13148, residues 1-414)
Method: RNA Bind-n-Seq
Molecule type: RNA
Medium: in vitro
Tested at: 20 nM
Setting: 6-mer, flanks averaged, single round
Together with: 150 mM KCl
Reference: input library
Reading: higher = stronger binding
Endpoint: 6-mer enrichment (R)
AACUGC: 0.642
GGUCAG: 1.65
UUCUCC: 0.575
GACCAG: 1.06
ACUGGG: 1.96
GGUACC: 0.932
GUGGUA: 1.44
AGUGGG: 3.82
GUAGUA: 0.882
CCCAGC: 0.688
CCGGCG: 1.48
UCUAAU: 0.616
AUACCA: 0.615
AUAUCG: 0.613

Set 3
Target: Fragile X messenger ribonucleoprotein 1, C-terminal low-complexity region (Fmr1, Mus musculus, UniProt P35922)
Method: RNA Bind-n-Seq
Molecule type: RNA
Medium: in vitro
Tested at: 200 nM
Setting: whole 134-nt RNA, ends assumed
Together with: 150 mM LiCl
Reference: input library
Reading: higher = stronger binding
Endpoint: log2 enrichment
All molecules: 7-deaza-guanosine replaces G
Shared flanks, not repeated: GGGAGUUCUACAGUCCGACGAUC … UGGAAUUCUCGGGUGUCAAGG
CAAGUCCUGUGCUACACAUCGUAUGUACCGAAUCGGUUUUUGGAAAAAGGUUUGGAAAGUAUUAUGUUACGCCGUUCGGAUCUGCACUUC: -3.06
CCUCAAGUCCUGUGCUACACAUCGUAUGUACCGAAUCGGUUUGGAAAGGAGGAAAGUAUUAUGUUACGCCGUUCGGAUCUGCACUUCCAG: -0.203
CCUGUGCUACACAUCGUAUGUACCGAAUCGGGGAAAAAAGGGGAAAAAAGGAAAAAAGGGGAAAGUAUUAUGUUACGCCGUUCGGAUCUG: 0.983
UCAAGUCCUGUGCUACACAUCGUAUGUACCGAAUCGGGUUGGGGUUGGGGUUGGAAAGUAUUAUGUUACGCCGUUCGGAUCUGCACUUCC: -1.01
CCUGUGCUACACAUCGUAUGUACCGAAUCGGGGCCCCCCCGGGCCCCCCCGGCCCCCCCGGAAAGUAUUAUGUUACGCCGUUCGGAUCUG: 0.854
AAGUCCUGUGCUACACAUCGUAUGUACCGAAUCGGGUUUUUGGGAAAAAGGGUGGGAAAGUAUUAUGUUACGCCGUUCGGAUCUGCACUU: -2.19
UCCUGUGCUACACAUCGUAUGUACCGAAUCGGGUUUUUUGGUUUUUUGGGGUUUUUUGGGAAAGUAUUAUGUUACGCCGUUCGGAUCUGC: -0.63
ACCAUGCAGGUGGGCAUCUUUGGGAAGUGGGGCAAGGGGGGGAUAGGGAGGGGGGUAAGACUUUGGGAACAGGUGGUCCCAGGUCGUUUC: 1.27
GUCCUGUGCUACACAUCGUAUGUACCGAAUCAAAGUGUGUGUGUGUGUGUGUGUGAAAAAAGUAUUAUGUUACGCCGUUCGGAUCUGCAC: -0.564
UGGGAGGUGGAUUUUGUUUAUUUUUUUAGCUCAUUUCCAGGGGUGGGAAUUUUUUUUUAAUAUGUGUCAUGAAUAAAUUUGUUUUUGAAA: 0.284
UAACUUUAGAGGAGGAUCUGAUGGAUAUGGCAGUGGACGUGGAUUUGGGGAUGGCUAUAAUGGGUAUGGAUGAGGACCUGGAGGUGGCAA: 0.188

Set 4
Target: PABPC1L2, full length, GST fusion (mouse, UniProt A0ABA7IW68)
Method: RNAcompete
Molecule type: RNA
Medium: in vitro
Tested at: 20 nM
Setting: 7-mer, probes averaged, single round
Reference: mean of 7-mers
Reading: higher = stronger binding
Endpoint: 7-mer Z-score
GAGGGUU: 0.0334
CCCAGGA: -0.153
AGUAUAU: -0.0681
AUCUGGC: -0.0319
GGCGCGC: -0.26
ACCGUCG: -0.394
GAGUAAC: -0.0699
CUAGAAC: -0.0283
AAGUAGG: 0.412
CAGCCCC: -0.244
GGUUGUA: -0.304
AGAACCA: -0.0772
GUGGGCG: 0.0913
AGAUACU: -0.287
CGGGGCA: 0.43
CAGGUUA: -0.133
UGCAGGU: 0.00436
UACUAAG: -0.0808
UUUUUGG: 0.017
CUGGAGU: -0.17
UCUAGAG: -0.24
GAUGCCU: -0.211
AUGUCUC: -0.309
GGACCAU: 0.142
GUACAAU: 0.0279
